Assay results collected from several papers.
Every numbered part comes from another study and shows a few of its results, in no order.

Set 1
Target: RNA binding protein fox-1 homolog 2, RRM domain, GST-SBP tag (RBFOX2, Homo sapiens, UniProt O43251-10, residues 100-194)
Method: RNA Bind-n-Seq
Form: RNA
Medium: in vitro
Concentration: 365 nM
Notes: natural RNA segment, single round, ends assumed
Baseline: no-protein control
Reading: higher = stronger binding
Target sequence (chain): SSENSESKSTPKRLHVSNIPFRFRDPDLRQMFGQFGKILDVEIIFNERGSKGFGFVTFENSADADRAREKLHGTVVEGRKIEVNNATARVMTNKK
`GGGAGUUCUACAGUCCGACGAUCCAAGGACACGUGCGCCUGCCUUCCCGCUCCCUCUCUCUCAGAGAUUGCCCUUUCUUCCCGAGGGCUGUGGGCCAGCGCUCCGAAGGAAGCAAUCAAGGGGAGAAAACACAUGGAAUUCUCGGGUGCCAA` — result for “RBNS enrichment (R)”: 0.436.
For `GGGAGUUCUACAGUCCGACGAUCGGUCUCUGUGAGCGCCACGCUGCUGUGCUGGAAAUGCCGCUUUAAAAAGGGAUACCGUGGGACUCUGCCCGUCUCUUUCAUAACGCAAUAUUUAUUUGUAUUGGGUGAUGUGGAAUUCUCGGGUGCCAA`, “RBNS enrichment (R)” read 0.266.
`GGGAGUUCUACAGUCCGACGAUCGUAAUACUGACCAUUUUAGUCCCCUAGGUUUGACAUGGGAGAUAGUGACUACACUGGUGUCUGACUUUUUUCCUAGAGAUUUCUCCCUGAAAAAUACAAGGGCUGUUGGUUGGAAUUCUCGGGUGCCAA` — result for “RBNS enrichment (R)”: 5.03.
For `GGGAGUUCUACAGUCCGACGAUCCUUUUGCACAAAUGCUUUAGAUUGUAUGGUCUACACUCAGGAAGACACUAGGUCACCCAGGCAAAGCCAGUGGACAGAUGCCUUUCAUAUAACCUGGGUGGGCUUUUGGAUGGAAUUCUCGGGUGCCAA`, “RBNS enrichment (R)” read 0.372.

Set 2
Target: Interferon regulatory factor 5, full length, phosphomimetic (IRF5, Homo sapiens, UniProt Q13568-2, residues 1-514, S451D/S453D/S456D/S462D)
Method: protein-binding microarray
Form: double-stranded DNA, one strand shown
Medium: in vitro
Concentration: 940 nM top
Notes: 60-bp whole probe
With: salmon DNA 0.4 mg/ml
Baseline: random background probes
Reading: higher = stronger binding
`GCCTAGCACGACGAACTGAGTCTCGAGAAGTGCTAGGTCTTGATTCGCTTGACGCTGCTG` — result for “fitted relative affinity”: 0.549 z-score.
For `GCCTAGCACGACGGACTGGGGTCTCGGGACGTGCTAGTCTTGATTCGCTTGACGCTGCTG`, “fitted relative affinity” read -0.164 z-score.
`GCCTAGCACGACGGTCTCCTTATCCTTACGTGCTAGGTCTTGATTCGCTTGACGCTGCTG`: “fitted relative affinity” 0.655 z-score.
For `GCCTAGCACGAAGATCTCAGTTTCGAGACGTGCTAGGTCTTGATTCGCTTGACGCTGCTG`, “fitted relative affinity” read 3.56 z-score.

Set 3
Target: Ras GTPase-activating protein-binding protein 1, full length (G3BP1, Homo sapiens, UniProt Q13283)
UniProt Q13283, sequence (whole entry, looked up): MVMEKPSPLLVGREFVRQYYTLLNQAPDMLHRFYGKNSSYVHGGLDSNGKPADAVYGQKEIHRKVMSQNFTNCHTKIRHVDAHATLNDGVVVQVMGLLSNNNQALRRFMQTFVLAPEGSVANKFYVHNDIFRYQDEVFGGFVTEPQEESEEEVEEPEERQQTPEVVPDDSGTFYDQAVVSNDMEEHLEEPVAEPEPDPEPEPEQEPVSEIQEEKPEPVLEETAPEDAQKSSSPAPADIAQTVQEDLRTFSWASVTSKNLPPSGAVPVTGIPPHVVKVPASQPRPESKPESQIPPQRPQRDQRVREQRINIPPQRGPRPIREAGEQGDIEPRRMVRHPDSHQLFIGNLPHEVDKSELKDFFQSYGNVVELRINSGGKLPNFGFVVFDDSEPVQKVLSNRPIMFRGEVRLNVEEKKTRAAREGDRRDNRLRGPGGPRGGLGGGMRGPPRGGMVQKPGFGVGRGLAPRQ
Method: RNA Bind-n-Seq
Form: RNA
Medium: in vitro
Concentration: 200 nM
Notes: whole 134-nt RNA, ends assumed
With: 150 mM KCl
Baseline: input library
Reading: higher = stronger binding
Shared flanks, not repeated: GGGAGUUCUACAGUCCGACGAUC … UGGAAUUCUCGGGUGUCAAGG
For `CAAGUCCUGUGCUACACAUCGUAUGUACCGAAUCGGUGGAAAAAGGAAAAAAAGGAAAGUAUUAUGUUACGCCGUUCGGAUCUGCACUUC`, the log2 enrichment was -0.826.
With `UAACUUUAGAGGAGGAUCUGAUGGAUAUGGCAGUGGAAGUGGAUUUGGGGAUGGCUAUAAUGGGUAUGGAGGAGGACCUGGAGGUGGCAA` the log2 enrichment was 0.192.
`UGGGAGGUGGAUUUUGUUUAUUUUUUUAGCUCAUUUCCAGGGGUGGGAAUUUUUUUUUAAUAUGUGUCAUGAAUCAAGUUGUUUUUGAAA` gave a log2 enrichment of 0.28.
`ACCAUGCAGGUGGGCAUCUUUGGGAAGUGGGGCAAGGGGGGGAUAGGGAGGGGGGUAGCACUUUGGGAACAGGUGGUCCCAGGUCGUUUC` has a log2 enrichment of 1.19.
With `AAGUCCUGUGCUACACAUCGUAUGUACCGAAUCGGGAGGGAAAAAAAGGGAAAGGGAAAGUAUUAUGUUACGCCGUUCGGAUCUGCACUU` the log2 enrichment was 0.0917.

Other studies, line by line
`PhoQ, residues 284 288 289 292 302 303 SCEHLI` has a fold induction of 12.1 (PhoP, residues 12 14 15 18 19 AGCRL (Escherichia coli, UniProt P23836); Sort-seq, measured: YFP reporter; E. coli; PhoQ-PhoP variant library, with: 10 µM Mg2+; baseline: high Mg2+ state, higher = stronger signaling).

Some of these lines once more (set 3):
`ACCAUGCAGGUGGGCAUCUUUGGGAAGUGGGGCAAGGGGGGGAUAGGGAGGGGGGUAGCACUUUGGGAACAGGUGGUCCCAGGUCGUUUC` has a log2 enrichment of 1.19.
With `AAGUCCUGUGCUACACAUCGUAUGUACCGAAUCGGGAGGGAAAAAAAGGGAAAGGGAAAGUAUUAUGUUACGCCGUUCGGAUCUGCACUU` the log2 enrichment was 0.0917.
